Values quoted from earlier work that unrelated publications cite.
Each line is one published result; not all experiments were run side by side. ± gives the spread as reported. In brackets after ≈: the same amount, converted by molar mass.
UniProt Q9UQM7, sequence (whole entry, looked up): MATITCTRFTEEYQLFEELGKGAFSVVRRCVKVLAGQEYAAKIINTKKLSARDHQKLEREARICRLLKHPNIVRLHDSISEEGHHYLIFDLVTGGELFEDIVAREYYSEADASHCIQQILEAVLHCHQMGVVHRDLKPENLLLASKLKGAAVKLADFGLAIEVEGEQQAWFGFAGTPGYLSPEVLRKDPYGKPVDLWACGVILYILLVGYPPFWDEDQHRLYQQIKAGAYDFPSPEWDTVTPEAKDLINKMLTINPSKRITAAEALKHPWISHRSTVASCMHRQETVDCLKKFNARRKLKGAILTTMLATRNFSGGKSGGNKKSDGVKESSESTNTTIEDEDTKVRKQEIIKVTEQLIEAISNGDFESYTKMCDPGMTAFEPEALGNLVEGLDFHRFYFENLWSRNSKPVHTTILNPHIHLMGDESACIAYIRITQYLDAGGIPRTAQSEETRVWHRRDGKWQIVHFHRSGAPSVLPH

Structure (SMILES)	tested on	test	test system	setting	how to read	quantity	result
Cc1cc(=O)c(-c2ccc(Oc3cccc(C(F)(F)F)c3)cc2)c(C)[nH]1	Plasmodium falciparum	whole cell extended time	3D7	72 h	–	IC50	630 nM
C[C@H]1COCCN1c1nc(-c2cnc(N)cc2C(F)F)nc(N2CCOCC2)n1	RPMI-7951	–	–	–	–	GI50	300 nM
CCOc1ccc(-c2nc3ccc(-c4nc5ccc(N6CCN(C)CC6)cc5[nH]4)cc3[nH]2)cc1	–	–	PBS with 0.1% SDS	–	–	fluorescence quantum yield	0.541 ± 0.002
Cc1cc(-c2nccc3c2ccn3CC(=O)Nc2ccc(-c3cnccn3)cn2)ccn1	–	–	rat	6 mg/kg/day, 1 month, repeat dosing	–	AUC(0-24 h), total	11.2 µM·h
CCOc1ccccc1OCCN[C@H](C)Cc1ccc(OC)c(S(N)(=O)=O)c1	–	–	supercritical CO2	–	–	crossover pressure	215 to 230 bar
Nc1nc(NC2CC2)c2ncn([C@H]3C=C[C@@H](CO)C3)c2n1	–	–	mouse	–	–	oral bioavailability	76%
Cn1c(=O)oc2ccc(-c3ccc(C[C@@H](C#N)NC(=O)[C@@H]4CNCCCO4)cc3)cc21	–	–	human, urine	dose not given	reference: dose	unchanged drug excreted in urine	~20%
CC(C)n1nc(-c2ccc3oc(N)nc3c2)c2c(N)ncnc21	–	–	patients	dose not given, dose-expansion phase	–	hyperglycemia incidence	60%
CCc1cc(/C(C)=N/OCc2ccc(C3CCCCC3)c(C(F)(F)F)c2)ccc1CN1CC(C(=O)O)C1	–	population PK	human, CYP2C9*2/*2	–	–	clearance	2.5 L/h
CC(C)(C)NCC(O)c1cc(O)cc(O)c1 (stereo not drawn)	–	–	human, plasma	inhaled, dose not given	–	Clast	4.4 nM
Cc1cn([C@H]2C=C[C@@H](CO)O2)c(=O)[nH]c1=O	–	–	monkey	30 mg/kg	–	oral bioavailability	77%
CS(=O)(=O)CCNCc1ccc(-c2ccc3ncnc(Nc4ccc(OCc5cccc(F)c5)c(Cl)c4)c3c2)o1	–	–	water	–	–	solubility	< 1000 µg/mL
Nc1nc(=O)n([C@@H]2C=C[C@H](CO)O2)cc1F	–	–	human	10 mg	–	oral bioavailability	32%
C[Si](C)(C)O[Si](C)(C)O[Si](C)(C)O[Si](C)(C)C	–	HPLC retention correlation	1-octanol/water	25 °C	–	log KOW	5.4
CC(C)(C)c1ccc(C(O)CCCN2CCC(C(O)(c3ccccc3)c3ccccc3)CC2)cc1 (stereo not drawn)	–	–	human	–	–	free Cmax	84.6 nM
NC(=O)N1c2ccccc2C=Cc2ccccc21	–	–	water	–	–	solubility	< 1000 µg/mL
COCCc1ccc(OCC(O)CNC(C)C)cc1 (stereo not drawn)	–	–	human	100 mg	–	Cmax, geometric mean	21.9 ng/mL
CCN1CCN(Cc2ccc(Nc3ncc(F)c(-c4cc(F)c5nc(C)n(C(C)C)c5c4)n3)nc2)CC1	–	–	healthy human, plasma	150 mg single dose, with: [14C]compound	–	parent share of plasma drug material	34%
CN(C)C(=O)c1cc2cnc(Nc3ccc(N4CCNCC4)cn3)nc2n1C1CCCC1	–	–	human	400 mg single dose, with: ritonavir 100 mg twice daily for 14 days	reference: compound alone	increase in AUCinf	3.2 fold
C[C@@H](Oc1cc(-c2cnn(C3CCNCC3)c2)cnc1N)c1c(Cl)ccc(F)c1Cl	–	refers to: vomiting	treatment-naive ALK-positive NSCLC patients	dose not given, monotherapy trial	–	adverse event incidence	46%
CC(C)(/C=C(\C#N)C(=O)N1CCC[C@@H](n2nc(-c3ccc(Oc4ccccc4)cc3F)c3c(N)ncnc32)C1)N1CCN(C2COC2)CC1	–	–	human	600 mg once daily	–	AUC(0-last)	1060 ng·h/mL

Structure (SMILES)	tested on	test	test system	setting	how to read	quantity	result
CNCc1cc(-c2ccccc2F)n(S(=O)(=O)c2cccnc2)c1	–	–	human, plasma	20 mg single dose, observed clinical data	–	Tmax	1.5 h
CC(C)(CO)c1cc2cc(NC(=O)C3(c4ccc5c(c4)OC(F)(F)O5)CC3)c(F)cc2n1C[C@@H](O)CO	–	–	FaSSIF	literature value	–	solubility	119 µg/mL (≈ 229 µM)
COc1cc(N2CCC(N3CCN(C)CC3)CC2)ccc1Nc1ncc(Cl)c(Nc2ccccc2P(C)(C)=O)n1	–	–	healthy subjects	dose not given, CYP3A induction, single dose, with: rifampin 600 mg once daily	–	AUC(0-inf)	3040 ng·h/mL
C#C[C@]1(O)CC[C@H]2[C@@H]3CCC4=CC(=NO)CC[C@@H]4[C@H]3CC[C@@]21CC (mixture of isomers)	–	–	human, fed	0.215 mg norgestimate, after 7 days dosing	–	AUC(0-24 h), geometric mean	19.2 ng·h/mL
N=C(N)c1ccc(OCCCCCOc2ccc(C(=N)N)cc2)cc1	–	–	human	–	–	free Cmax	455 nM
C[C@@H]1C[C@H]2[C@@H]3CCC4=CC(=O)C=C[C@]4(C)[C@@]3(F)[C@@H](O)C[C@]2(C)[C@@]1(O)C(=O)CO	–	–	–	–	–	water solubility	89 µg/mL (≈ 227 µM)
O=c1[nH]cnc2c1ncn2[C@H]1CC[C@@H](CO)O1	–	–	mouse	–	–	oral bioavailability	15%
Nc1cc(C(F)(F)F)c(-c2nc(N3CCOCC3)nc(N3CCOCC3)n2)cn1	Calcium/calmodulin-dependent protein kinase type II subunit alpha (CAMK2A, Homo sapiens, UniProt Q9UQM7)	enzyme activity	–	10 µM	reference: untreated	remaining activity	88%
Cc1ccc(NC(=O)c2ccc(CN3CCN(C)CC3)cc2)cc1Nc1nccc(-c2cncc(-c3oncc3C)c2)n1	–	–	mouse	50 mg/kg/day, steady state	–	half-life	3.1 h
CC(C)c1nc(CN(C)C(=O)N[C@H](C(=O)N[C@@H](Cc2ccccc2)C[C@H](O)[C@H](Cc2ccccc2)NC(=O)OCc2cncs2)C(C)C)cs1	–	–	plasma	concentration not given, total, steady state	–	Cmax	15000 nM
[O-][S+](CCN1CCN(CC(O)Cc2ccccc2)CC1)C(c1ccc(F)cc1)c1ccc(F)cc1 (stereo not drawn)	–	–	mouse liver microsomes	1 h	–	remaining compound	4%
COc1ccccc1OCC(O)CN1CCN(CC(=O)Nc2c(C)cccc2C)CC1 (stereo not drawn)	–	–	human	–	–	free Cmax	2480 nM
Cc1ccc(C(=O)c2cc(O)c(O)c([N+](=O)[O-])c2)cc1	–	–	water	–	–	solubility	< 1000 µg/mL
C=CC(=O)N1CCC[C@@H](n2nc(-c3ccc(Oc4ccccc4)cc3)c3c(N)ncnc32)C1	–	–	supercritical CO2	–	–	crossover pressure	150 to 170 bar
CCCN1CCCC[C@H]1C(=O)Nc1c(C)cccc1C	–	–	plasma	–	–	free Cmax	97.4 nM
CC1(C)S[C@@H]2[C@H](NC(=O)[C@H](N)c3ccccc3)C(=O)N2[C@H]1C(=O)O	Pseudomonas aeruginosa	–	clinical isolate RKI-No_470/12	–	–	MIC	> 16 µg/mL
CCCCNC(=O)NS(=O)(=O)c1ccc(C)cc1	–	–	human	–	–	clearance	0.22 mL/min/kg
C[Si]1(C)O[Si](C)(C)O[Si](C)(C)O[Si](C)(C)O[Si](C)(C)O[Si](C)(C)O1	–	–	octanol/air	–	–	slope B of log KOA vs 1/T	3000 K
C#Cc1cccc(Nc2ncnc3cc(OCCOC)c(OCCOC)cc23)c1	–	–	human	concentration not given, with: with food	–	increase in bioavailability	~100%
C=CCOc1ccc(-c2c(C)[nH]c(C)c(Br)c2=O)cc1	Plasmodium falciparum	whole cell extended time	3D7	72 h	–	IC50	280 nM
CCC(C)C1OC2(CCC1C)CC1CC(C/C=C(\C)C(OC3CC(OC)C(OC4CC(OC)C(O)C(C)O4)C(C)O3)C(C)/C=C/C=C3\COC4C(O)C(C)=CC(C(=O)O1)C34O)O2 (stereo not drawn)	–	–	water	–	–	solubility	< 1000 µg/mL

Structure (SMILES)	tested on	test	test system	setting	how to read	quantity	result
Nc1nc(=O)n(C2CSC(CO)O2)cc1F (stereo not drawn)	–	–	rat	1000 mg/kg	–	bioavailability	73%
CC(C)Cc1ccc(C(C)C(=O)O)cc1 (stereo not drawn)	–	–	water	–	–	solubility	< 1000 µg/mL
O=C(Nc1nc2ccccc2[nH]1)c1ccccc1	ATAD5	–	–	PubChem AID 504466	–	activity	0.5 µM
Cc1nc(NC(=O)N2CCC[C@H]2C(N)=O)sc1-c1ccnc(C(C)(C)C(F)(F)F)c1	–	–	human, urine	oral, 400 mg, radiolabelled, fasted	reference: dose	dose excreted	14%
COCC(=O)O[C@]1(CCN(C)CCCc2nc3ccccc3[nH]2)CCc2cc(F)ccc2[C@@H]1C(C)C	–	–	plasma	concentration not given, total, steady state	–	Cmax	2900 nM
CO[C@H]1O[C@H](COS(=O)(=O)O)[C@@H](O[C@@H]2O[C@@H](C(=O)O)[C@@H](O[C@H]3O[C@H](COS(=O)(=O)O)[C@@H](O[C@@H]4O[C@H](C(=O)O)[C@@H](O[C@H]5O[C@H](COS(=O)(=O)O)[C@@H](O)[C@H](O)[C@H]5NS(=O)(=O)O)[C@H](O)[C@H]4O)[C@H](OS(=O)(=O)O)[C@H]3NS(=O)(=O)O)[C@H](O)[C@H]2OS(=O)(=O)O)[C@H](O)[C@H]1NS(=O)(=O)O	–	–	human	concentration not given, clinical	–	diarrhoea incidence	< 3%
CNC(=O)c1c(C)oc2cc(Oc3ncnc4cc(OC)c(OC)cc34)ccc12	–	–	human	dose not given	–	elimination half-life	~42 h
CN[C@H]1CC[C@@H](c2ccc(Cl)c(Cl)c2)c2ccccc21	–	–	human patients	dose not given, with: esomeprazole	reference: no esomeprazole	increase in concentration	38.5%
CN[C@@H](C)C(=O)N[C@H]1CN(S(=O)(=O)c2cccc(S(=O)(=O)N3CC[C@H]4CC[C@@H](C(=O)NC(c5ccccc5)c5ccccc5)N4C(=O)[C@@H](NC(=O)[C@H](C)NC)C3)c2)CC[C@H]2CC[C@@H](C(=O)NC(c3ccccc3)c3ccccc3)N2C1=O	–	–	rat	–	reference: 7 consecutive doses over single dose	AUC(0-t) ratio	1.6
CC(C)Nc1nc2cc(Cl)c(Cl)cc2n1[C@H]1O[C@@H](CO)[C@H](O)[C@@H]1O	–	–	human, urine	dose not given	–	dose excreted unchanged in urine	< 2%
C=CCc1ccc(O)c(-c2ccc(O)c(CC=C)c2)c1	–	–	water	–	–	solubility	< 1000 µg/mL
CC(=O)[C@]1(O)Cc2c(O)c3c(c(O)c2[C@@H](O[C@H]2C[C@H](N)[C@H](O)[C@H](C)O2)C1)C(=O)c1ccccc1C3=O	–	–	human	concentration not given, clinical	–	diarrhoea incidence	73%
C[C@@H](O)[C@H]1C(=O)N2C(C(=O)O)=C(SCCN=CN)C[C@H]12	–	perpetrator, refers to: valproic acid	human	dose not given	reference: without compound	half-life reduction	51%
CC(C)C[C@H](NC(=O)[C@H](Cc1ccccc1)NC(=O)c1cnccn1)B(O)O	–	–	human patients	dose not given	–	severe peripheral neuropathy incidence	≤ 23%
FC(F)(F)c1ccc(CNc2ccc(Cc3c[nH]c4ncc(Cl)cc34)cn2)cn1	–	–	patients, plasma	oral, 400 mg once daily, day 15, mean	–	AUC(0-24 h)	41900 ng·h/mL
CC(C)(C)c1cc(C(C)(C)C)c(NC(=O)c2c[nH]c3ccccc3c2=O)cc1O	–	–	human, plasma	–	–	fraction unbound	0.001
C=C[C@@H]1C[C@]1(NC(=O)[C@@H]1C[C@@H]2CN1C(=O)[C@H](C(C)(C)C)NC(=O)O[C@@H]1C[C@H]1CCCCCc1nc3ccc(OC)cc3nc1O2)C(=O)NS(=O)(=O)C1CC1	–	–	bile duct-cannulated rats	oral, dose not given	–	unchanged drug excreted in faeces	73%
CC(=O)c1c(C)c2cnc(Nc3ccc(N4CCNCC4)cn3)nc2n(C2CCCC2)c1=O	–	–	supercritical CO2	–	–	crossover pressure	160 to 270 bar
CNC(C)C1CCC(N)C(OC2C(N)CC(N)C(OC3OCC(C)(O)C(NC)C3O)C2O)O1 (stereo not drawn)	Pseudomonas aeruginosa	–	clinical isolate RKI-No_627/13	–	–	MIC	2 µg/mL (≈ 4.19 µM)
CCCSc1ccc2nc(NC(=O)OC)[nH]c2c1	–	–	FaSSIF	literature value	–	solubility	2 µg/mL (≈ 7.54 µM)
[Ru+2].c1ccc(-c2ccnc3c2ccc2c(-c4ccccc4)ccnc23)cc1.c1ccc(-c2ccnc3c2ccc2c(-c4ccccc4)ccnc23)cc1.c1ccc(-c2ccnc3c2ccc2c(-c4ccccc4)ccnc23)cc1	–	–	CD3OD	–	–	singlet oxygen quantum yield	0.97

For quick reference, copied from above:
Structure (SMILES)	tested on	test	test system	setting	how to read	quantity	result
C=CCc1ccc(O)c(-c2ccc(O)c(CC=C)c2)c1	–	–	water	–	–	solubility	< 1000 µg/mL
CC(=O)[C@]1(O)Cc2c(O)c3c(c(O)c2[C@@H](O[C@H]2C[C@H](N)[C@H](O)[C@H](C)O2)C1)C(=O)c1ccccc1C3=O	–	–	human	concentration not given, clinical	–	diarrhoea incidence	73%
C[C@@H](O)[C@H]1C(=O)N2C(C(=O)O)=C(SCCN=CN)C[C@H]12	–	perpetrator, refers to: valproic acid	human	dose not given	reference: without compound	half-life reduction	51%
CC(C)C[C@H](NC(=O)[C@H](Cc1ccccc1)NC(=O)c1cnccn1)B(O)O	–	–	human patients	dose not given	–	severe peripheral neuropathy incidence	≤ 23%
FC(F)(F)c1ccc(CNc2ccc(Cc3c[nH]c4ncc(Cl)cc34)cn2)cn1	–	–	patients, plasma	oral, 400 mg once daily, day 15, mean	–	AUC(0-24 h)	41900 ng·h/mL
CC(C)(C)c1cc(C(C)(C)C)c(NC(=O)c2c[nH]c3ccccc3c2=O)cc1O	–	–	human, plasma	–	–	fraction unbound	0.001
C=C[C@@H]1C[C@]1(NC(=O)[C@@H]1C[C@@H]2CN1C(=O)[C@H](C(C)(C)C)NC(=O)O[C@@H]1C[C@H]1CCCCCc1nc3ccc(OC)cc3nc1O2)C(=O)NS(=O)(=O)C1CC1	–	–	bile duct-cannulated rats	oral, dose not given	–	unchanged drug excreted in faeces	73%
CC(=O)c1c(C)c2cnc(Nc3ccc(N4CCNCC4)cn3)nc2n(C2CCCC2)c1=O	–	–	supercritical CO2	–	–	crossover pressure	160 to 270 bar
